Measurements collected from several papers.
Each numbered part is a random draw from the data of one study; scales do not carry over between parts.

Set 1 — technique: protein-binding microarray; molecule type: double-stranded DNA, one strand shown; sample: in vitro; concentration: 2540 nM top; notes: 60-bp whole probe; added: salmon DNA 0.4 mg/ml; relative to: random background probes; direction: higher = stronger binding; constant ends, left off below: GCCTAGCAC … GTCTTGATTCGCTTGACGCTGCTG
Target: Interferon regulatory factor 3, full length, phosphomimetic (IRF3, Homo sapiens, UniProt Q14653, residues 1-427, S386D/S396D/S398D/S402D/T404D/S405D)
Residues (chain): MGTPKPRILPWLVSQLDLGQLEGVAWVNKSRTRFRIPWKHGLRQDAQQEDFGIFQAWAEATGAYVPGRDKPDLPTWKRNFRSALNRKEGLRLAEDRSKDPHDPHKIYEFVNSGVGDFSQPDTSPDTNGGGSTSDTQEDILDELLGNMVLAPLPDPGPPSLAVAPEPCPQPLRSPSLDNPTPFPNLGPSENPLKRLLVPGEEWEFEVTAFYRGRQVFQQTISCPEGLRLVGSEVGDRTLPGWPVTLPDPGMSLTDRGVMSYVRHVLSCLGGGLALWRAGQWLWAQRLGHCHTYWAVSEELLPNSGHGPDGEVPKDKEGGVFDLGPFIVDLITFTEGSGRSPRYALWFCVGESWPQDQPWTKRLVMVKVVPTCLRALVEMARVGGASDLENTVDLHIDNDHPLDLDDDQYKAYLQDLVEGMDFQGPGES
Oligonucleotide | fitted relative affinity [z-score]
TTAGGTCTCCTAATGCTTTAGTGCTAG | 1.6
TTAGAACTGGGGATTGGATTAGTGCTA | -0.698
TTAGAACTGAGACTGGATCAGTGCTAG | -0.185
TTAGGTTTCCTTCTCTTTTAGTGCTAG | 9.78
TTTGGACTGGGTATCGGTTAGTGCTAG | 0.307
CTAGATATCAGTCTCGATTAGTGCTAG | 1.41
GTCGGTTTCCTTTTCCTGACGTGCTAG | 12.6
GACGATATGGGGTATCGAGACGTGCTA | -0.289
TCAGAAATCTCAATGGGACTGTGCTAG | -0.19
GACGGTATCGGCACTGGGGACGTGCTA | 0.719

Set 2 — technique: RNA Bind-n-Seq; molecule type: RNA; sample: in vitro; concentration: 365 nM; relative to: no-protein control; direction: higher = stronger binding
Target: RNA binding protein fox-1 homolog 2, RRM domain, GST-SBP tag (RBFOX2, Homo sapiens, UniProt O43251-10, residues 100-194)
Notes: natural RNA segment, single round, ends assumed
Target sequence (chain): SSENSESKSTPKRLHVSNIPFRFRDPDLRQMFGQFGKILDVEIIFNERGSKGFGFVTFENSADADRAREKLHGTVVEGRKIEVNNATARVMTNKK
Oligonucleotide | RBNS enrichment (R)
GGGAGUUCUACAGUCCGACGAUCAUGUCAGCAUUUGGUGUUACUCCUGUCCAAAUUCUGUUUGCAGACUUGUUUCAUGAUGAUGCUCUGGAAUGCUUGGGGACUUUGGGUGGAGGAGGAUGUUACUUCAUUUUUGGAAUUCUCGGGUGCCAA | 4.57
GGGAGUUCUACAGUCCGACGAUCCCUGUUGUACCAGUCUGACCAGUGUUUGGAAUGUUCAGACAUAAUCUCCUGUGUGAAGCUCAAGGUCUUAGGAGGAUUUUGGAUUUUGUGAAGAGAUGGACAGUCUCAUCUGGAAUUCUCGGGUGCCAA | 0.763
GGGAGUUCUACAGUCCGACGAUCGUUCAUGAUUGUUGUGUUUUAAGACUUGUAUAUAAACUGCUUUUUCCAAACUCUGUAUAACUUUUAAAUGGCUGGAACUACUCGUAUAAGGACUAGACUGUAUUUUUGACUGGAAUUCUCGGGUGCCAA | 0.925
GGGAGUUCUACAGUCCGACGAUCACUUUAACAGCUGUUCCCGAAAGGGUUAGGACCAACUGCAAGUUAAUGUGGGUUGUAAAUGUUCCCCUAACUUCUGUUUCUUCUGAAGAGAAAAUAAACCUUUUUCCCCCUGGAAUUCUCGGGUGCCAA | 0.51
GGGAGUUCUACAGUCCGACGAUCGGGGUUGAAGGCUGGGGAGGAGGAUCUACUGCUGUACAGCUAAUAAAUCAUAACGGAUUAACAGGCAUUCUGAAGACUCCGUCUUUUGGGACUCCUAUUUGUCCAGGUCCUGGAAUUCUCGGGUGCCAA | 0.248
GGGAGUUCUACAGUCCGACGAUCUGGCAUCUGUACCCCACCUCACCCCCGAGAAGUGCUAUUGCUUGCCCUCUGCCUCAGCCCCACUAGGGGAACAACAGGAGGCCUGCUGGGGCUUAGAGUCCGUGCAGGUGUGGAAUUCUCGGGUGCCAA | 0.339
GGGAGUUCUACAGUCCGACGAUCAUGAUUCAAACAUCUACCCCUGUUCUGAAUCAGGAUGUUGACACUUCUUGGUUAUUUUCAGAUGAACAGUAACUGCUACACUCUUGAAAGCACUUAAAAGUGCAAGCAUGUGGAAUUCUCGGGUGCCAA | 2.17
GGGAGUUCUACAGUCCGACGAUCCUUUUAUGAUCAGGGUGAAAUGUACUUCCUGAUGUAAUGAACCUAAUUUGAUUUCCAUUUUAAGGUGGUGUCUGUGCAGCUGGUGUCCCCGAUUCUGGCUGUCCUAUGUCUGGAAUUCUCGGGUGCCAA | 0.409
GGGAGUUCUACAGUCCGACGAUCCAAUAUUCUCUGUACAUAUUAGCGACAACAGAUUGGAUUUUAUGUUGACAUUUGUUUGGUUAUAGUGCAAUAUAUUUUGUAUGCAAGCAGUUUCAAUAAAGUUUGAUCUUUGGAAUUCUCGGGUGCCAA | 0.411

Set 3 — technique: protein binding microarray; molecule type: double-stranded DNA, one strand shown; sample: in vitro; concentration: not given; relative to: not given; direction: higher = stronger binding
Target: Histone acetyltransferase KAT6A, winged helix 2, GST fusion (KAT6A, Homo sapiens, UniProt Q92794, residues 85-181)
Notes: 8-mer, flanks averaged, mean of 2 arrays, mostly near background
Construct (chain): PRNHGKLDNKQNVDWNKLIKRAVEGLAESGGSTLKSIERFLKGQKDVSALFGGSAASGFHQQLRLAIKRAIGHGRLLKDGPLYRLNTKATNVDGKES
Oligonucleotide | E-score
ATGGACGC | 0.0673
AGGACCGC | 0.0977
CCAACCCG | 0.163
AAACAGCT | 0.0427
CGACCACC | -0.0173
AAGTGTGT | 0.0243
ACTGACCC | -0.0227
CCACAAGG | 0.032
GCCAAGAC | -0.0368
GTAAGGAA | -0.147
ACTTACCG | 0.00298
GCATGGTA | 0.0334
ATAGACAA | -0.0455
CATACTTA | -0.135

Mixed results
Substance | target | assay | system | setting | scale | endpoint | result
PhoQ, residues 284 288 289 292 302 303 AGCYAI | PhoP, residues 12 14 15 18 19 NYFRM (Escherichia coli, UniProt P23836) | Sort-seq, item: YFP reporter | E. coli | PhoQ-PhoP variant library, added: 10 µM Mg2+ | relative to: high Mg2+ state, higher = stronger signaling | fold induction | 4.3

A few entries again (set 1):
Oligonucleotide | fitted relative affinity [z-score]
TTAGAACTGAGACTGGATCAGTGCTAG | -0.185
TTAGGTTTCCTTCTCTTTTAGTGCTAG | 9.78
TTTGGACTGGGTATCGGTTAGTGCTAG | 0.307
